Results gathered from unrelated publications.
Compare with care: the assays were run in different laboratories. ± marks the error that the study gave.

`CCC(=O)N1CCN(c2ccc(-n3c(=O)ccc4cnc5ccc(-c6cnc7ccccc7c6)cc5c43)cc2C(F)(F)F)CC1` gave an IC50 of 0.0489 µM (HD-MB03; cell growth; 168 h, DMSO).
For `Cc1ccc(C)c(COc2cc(NC(=O)c3cc(C(F)(F)F)cc(C(F)(F)F)c3)ccc2NC(=N)N)c1`, the IC50 was greater than 500 µM (RAW264.7; cell growth, MTT; 48 h).
`COc1cccc(OCCCN)c1-c1cc(Nc2cnc(C#N)cn2)n[nH]1` gave an IC50 of 0.0304 µM (HD-MB03; cell growth; 168 h, single agent).
`Cc1c(C)c2c(c(C)c1O)CCC(C)(COc1ccc(CC3SC(=O)NC3=O)cc1)O2` (centres unmarked) gave an IC50 of 87 ± 12 µM (THLE-2 cells, Ad-Null transduced; cell viability; no enzyme control).
`CON(C)C(=O)N1N=C(c2cc(F)ccc2F)S[C@@]1(CCCN)c1ccccc1` gave an IC50 of 0.00453 µM (HD-MB03; cell growth; 168 h, DMSO).
`CC(=O)c1c(O)c(C)c(O)c2c1OC1=CC(=O)C(C(C)=O)C(=O)C12C` (single isomer, unassigned; (+)) has an IC50 of 26 µM (hepatocytes, iPSC-derived, W2 line; cell viability; 24 h).
For `CCCc1nc(C(C)(C)O)c(C(=O)O)n1Cc1ccc(-c2ccccc2-c2nnn[nH]2)cc1`, the IC50 was greater than 60 µM (human skeletal muscle cells; BCKD phosphorylation, inhibitor).
The IC50 of `CC1(C)COc2ccc(F)cc2CN2c3nc4c(cnn4cc3OC[C@H]2C(F)F)C(=O)N1` is reported as 0.128 µM (NCI-H3122 (EML4-ALK variant 1); cell viability).
With `Cn1nc(-c2ccccc2)c2c1OC(N)=C(C#N)C2c1ccc(-n2ccnc2)cc1` (centres unmarked) the IC50 was 1.3 ± 0.3 µM (NCI-H2122; anchorage-independent growth).
With `CCOc1cc(C(C)(C)C)ccc1C1=N[C@@](C)(c2ccc(Cl)cc2)[C@@](C)(c2ccc(Cl)cc2)N1C(=O)N1CCN(CCCS(C)(=O)=O)CC1` the IC50 was 0.479 µM (HD-MB03; cell growth; 168 h, single agent).
The IC50 of `C[C@H](Nc1ccc2c(c1)OCCn1cc(N3C(=O)OC[C@H]3C(F)F)nc1-2)C(N)=O` is reported as 0.0486 µM (NCI-H596; growth rate inhibition, CellTiter-Glo; 120 h).
The IC50 of `CCCCN1C[C@H](O)[C@@H](O)[C@@H](O)[C@H]1CO` is reported as 14.7 µM (sample H patient fibroblasts; Gb3 level lowering, LC-MS/MS, refers to: Gb3 d18:1/24:0; 216 h).
The IC50 of `CC1(C)CN=C(N2CCN(c3ncnc4sc(CC(F)(F)F)cc34)CC2)S1` is reported as 0.126 µM (HD-MB03; cell growth; single agent).
For `Nc1nc(N)c2nc(CNc3cccc4ccccc34)cnc2n1`, the IC50 was 33.1 µM (786-O; mitochondrial toxicity, MitoTracker Red imaging).
`Cc1c(C)c2c(c(C)c1O)CCC(C)(COc1ccc(CC3SC(=O)NC3=O)cc1)O2` (centres unmarked) has an IC50 of 40 µM (iPSC-derived hepatocytes B3; cell viability; 24 h, differentiation day 23).
`CCOc1nc2cccc(C(=O)O)c2n1Cc1ccc(-c2ccccc2-c2nnn[nH]2)cc1` has an IC50 of greater than 60 µM (human skeletal muscle cells; BCKD phosphorylation, AlphaLISA).
`C[C@H]1Oc2cc(cnc2N)-c2c(nn(C)c2C#N)CN(C)C(=O)c2ccc(F)cc21` gave an IC50 of less than 0.001 µM (NCI-H2228, EML4-ALK v3).
For `Cc1c(-c2c(-c3ccc(F)o3)sc3ncnc(O[C@H](Cc4ccccc4OCc4ccnn4CC(F)(F)F)C(=O)O)c23)ccc(OCCN2CCN(C)CC2)c1Cl`, the IC50 was 1.25 µM (HD-MB03; cell growth; DMSO).
The IC50 of `CNc1ncc2cc(-c3cc(NC(=O)NCCC(C)(C)C)c(F)cc3C)c(C)nc2n1` is reported as 1.22 µM (SK-MEL-2 (NRAS Q61R); ERK phosphorylation, Western blot; 1 h).
For `NC(=O)NO`, the IC50 was 18 ± 1.9 µM (mouse MDSCs differentiated in vitro; suppressive neutrophil frequency, flow cytometry).
`Cc1cn(-c2cc(NC(=O)c3ccc(C)c(Nc4nccc(-c5cccnc5)n4)c3)cc(C(F)(F)F)c2)cn1` — result for IC50: “inactive” (HD-MB03; 168 h).
The IC50 of `CC(=O)Nc1ccc(C(=O)Oc2ccc3[nH]c4ccccc4c3c2)cc1` is reported as 6.11 µM (rat vascular smooth muscle cells; cell proliferation, MTT; added: PDGF-BB).
The IC50 of `COc1cccc2c1C(=O)c1c(O)c3c(c(O)c1C2=O)C[C@@](O)(C(=O)CO)C[C@@H]3O[C@H]1C[C@H](N)[C@H](O)[C@H](C)O1` is reported as 0.147 ± 0.023 µM (HeLa untransduced; cell viability; 48 h).
For `CCc1nc(C(N)=O)c(Nc2ccc(N3CCC(N4CCN(C(=O)CNc5ccc(S(=O)(=O)NC(=O)c6ccc(N7CCN(CC8=C(c9ccc(Cl)cc9)CC(C)(C)CC8)CC7)cc6Oc6cnc7[nH]ccc7c6)cc5[N+](=O)[O-])CC4)CC3)c(OC)c2)nc1NC1CCOCC1`, the IC50 was greater than 10 µM (MOLM-14 FLT3-ITD F691L gilteritinib-resistant; cell viability, alamarBlue; 48 h).
For `Cc1nc(NC(=O)N2CCC[C@H]2C(N)=O)sc1-c1ccnc(C(C)(C)C(F)(F)F)c1`, the IC50 was 4.44 µM (HGC-27; growth rate inhibition, CellTiter-Glo; 120 h).
The IC50 of `O=C(O)COCC(=O)O` is reported as 7890 µM (iPSC-derived hepatocytes B3; cell viability; 48 h, differentiation day 23).
The IC50 of `O=C(c1c(F)ccc(NS(=O)(=O)N2CC[C@@H](F)C2)c1F)c1c[nH]c2ncc(-c3cnc(C4CC4)nc3)cc12` is reported as greater than 30 µM (SK-MEL-2 (NRAS Q61R); ERK phosphorylation, Western blot; 1 h).
With `COc1cc2nccc(Oc3ccc(NC(=O)C4(C(=O)Nc5ccc(F)cc5)CC4)cc3)c2cc1OC` the IC50 was 3.94 ± 1.06 µM (Rh3 (alveolar rhabdomyosarcoma); cell growth; 3 days).
`Clc1ccc(COc2cncc(-c3cnn(C4CCNCC4)c3)c2)c(Cl)c1` gave an IC50 of 9.84 µM (HMC3; nuclear intensity, high-content imaging; geometric mean).
`COc1cc2c(Oc3ccc(NC(=O)C4(C(=O)Nc5ccc(F)cc5)CC4)cc3F)ccnc2cc1OCCCN1CCOCC1` gave an IC50 of 0.49 ± 0.2 µM (Rh3 (alveolar rhabdomyosarcoma); cell growth; 3 days).
The IC50 of `Cn1c(=O)n(-c2ccc(C(C)(C)C#N)cc2)c2c3cc(-c4cnc5ccccc5c4)ccc3ncc21` is reported as 0.0534 µM (HD-MB03; cell growth; 168 h, DMSO).
The IC50 of `CCS(=O)(=O)N(C)c1ccc(NC(=O)c2cccc(C(=N)N)c2)cc1OCc1ccc(C(=N)N)cc1` is reported as greater than 500 µM (RAW264.7; cell growth, MTT; 48 h).
